Measurements gathered from unrelated publications.
Numbered parts are unrelated; each lists some results of a single study. Substitutions count along the parent as printed.

Study 1
Target: Ras GTPase-activating protein-binding protein 1, C-terminal RGG region (G3BP1, Homo sapiens, UniProt Q13283)
Sequence of UniProt Q13283 (whole entry, looked up): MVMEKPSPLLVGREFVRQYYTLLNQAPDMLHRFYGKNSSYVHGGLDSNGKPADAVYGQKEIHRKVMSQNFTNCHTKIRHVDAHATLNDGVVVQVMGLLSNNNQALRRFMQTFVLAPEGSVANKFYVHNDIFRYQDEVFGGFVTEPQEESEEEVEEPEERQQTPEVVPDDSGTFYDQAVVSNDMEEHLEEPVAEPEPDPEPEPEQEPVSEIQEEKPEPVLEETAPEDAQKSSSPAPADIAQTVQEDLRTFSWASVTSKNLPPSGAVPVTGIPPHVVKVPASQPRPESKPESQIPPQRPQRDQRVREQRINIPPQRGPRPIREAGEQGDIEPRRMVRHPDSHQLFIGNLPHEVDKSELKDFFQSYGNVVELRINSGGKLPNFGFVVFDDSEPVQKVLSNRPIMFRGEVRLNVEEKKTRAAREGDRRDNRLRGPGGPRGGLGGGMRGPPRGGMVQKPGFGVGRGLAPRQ
Technique: RNA Bind-n-Seq
Molecule type: RNA
Matrix: in vitro
Concentration: 1 µM
Notes: whole 134-nt RNA, ends assumed
Together with: 150 mM KCl
Relative to: input library
Reading: higher = stronger binding
All sequences stand within: GGGAGUUCUACAGUCCGACGAUC … UGGAAUUCUCGGGUGUCAAGG
Sequence	log2 enrichment
CCUCAAGUCCUGUGCUACACAUCGUAUGUACCGAAUCGGCCGGGCCGGCCGGAAAGUAUUAUGUUACGCCGUUCGGAUCUGCACUUCCAG	-1.22
CUCAAGUCCUGUGCUACACAUCGUAUGUACCGAAUCGGAAAAAAAGGAGGAGGAAAGUAUUAUGUUACGCCGUUCGGAUCUGCACUUCCA	-1.39
UCAAGUCCUGUGCUACACAUCGUAUGUACCGAAUCGGGAAAAAGGGUGGGUGGGAAAGUAUUAUGUUACGCCGUUCGGAUCUGCACUUCC	1.47
CUCAAGUCCUGUGCUACACAUCGUAUGUACCGAAUCGGGAAGGGAAGGAAGGGAAAGUAUUAUGUUACGCCGUUCGGAUCUGCACUUCCA	-0.603
UGGGCAAUGUGUCGGCUGCAUGCACGAGCCAGGAACUGCGCAGCCUCUUCGAGCGCCGCGGACGCGUCAUCGAGUGUGACGUGGUGAAAG	-1.64

Study 2
Target: RNA binding protein fox-1 homolog 2, RRM domain, GST-SBP tag (RBFOX2, Homo sapiens, UniProt O43251-10, residues 100-194)
Technique: RNA Bind-n-Seq
Molecule type: RNA
Matrix: in vitro
Concentration: 365 nM
Notes: natural RNA segment, single round, ends assumed
Relative to: no-protein control
Reading: higher = stronger binding
All sequences stand within: GGGAGUUCUACAGUCCGACGAUC … UGGAAUUCUCGGGUGCCAA
Construct (chain): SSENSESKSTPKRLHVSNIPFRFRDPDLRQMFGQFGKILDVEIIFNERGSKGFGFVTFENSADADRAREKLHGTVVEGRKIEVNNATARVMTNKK
Sequence	RBNS enrichment (R)
AUAAACAUUAGUGUAUUUAUUUCCUAUGUGUUAAUAUGAAGAUCAGAAAUUAUUUUUUGCACUUUGGCAUAAAUACUUUUCAAUAUCUGAUUUGUUCUCUGGAUAAAUUA	0.364
GUAAUCCCAAGUAUACAGGAAAUUGUGGGGUAGGCUGUCUCUCGUGAAUUGAGUUCUGCUGGGGCUAUAGAGCAUCGGGUCGGCAGCUGUCAUUCCCAGCUCUGUGACCU	0.617
UUAGUGUCAUUGCCGAUUUUGGCUAUAACAGUGUCUUUCUAGCCAUAAUAAAAUAAAACAAAAUCUUACUGCUUGCUCAUUUGAUUUUAGAUGUAUUUUCUCUGGCUUAC	3.48
CUGGUAAAACAUAGGCUUUUCUGUUUAAUUAAGUAUUAGACCAGUCUGUAGAUAUAAUCUGAAAAGAUUGUAGGCAGUAAUGAAGACAGUUGGGGAAAGGAGAAGGCCCU	0.537
UGAGGGAUGUUGGACAGAGCCUGUUUUCAUGUACUGCAGGUGGGGGUGUGCUGACAUGUUUGCUCUUGGUUGAUGGAGAAGGUACAGAGGCCAGGGAGUGAAAAUGGUUG	2.73
UGCAUAAUACAGAAAGCCUGUGAACACAUGGAAGAUGAUCCUCAUGGUAUGUAUGGUCUGUGUCUUUGGUGAAAUGCAGACUAGAUACCUAAGAACCAGCUUCCCAGUGG	0.274
ACAAGUGAGGUGGAGAGUUGGCUGUGGAAGGUACAGCAAUUCCUCUGGAAUUAAAUGACCGACCAACACAGUACCAAGAGGAUGAAGAGAAGAUGUUUUGCGUUGCUACG	0.601

Single results of other studies
P1: PKN2 docking peptide (human); VSAVRKLDFSDTM; partner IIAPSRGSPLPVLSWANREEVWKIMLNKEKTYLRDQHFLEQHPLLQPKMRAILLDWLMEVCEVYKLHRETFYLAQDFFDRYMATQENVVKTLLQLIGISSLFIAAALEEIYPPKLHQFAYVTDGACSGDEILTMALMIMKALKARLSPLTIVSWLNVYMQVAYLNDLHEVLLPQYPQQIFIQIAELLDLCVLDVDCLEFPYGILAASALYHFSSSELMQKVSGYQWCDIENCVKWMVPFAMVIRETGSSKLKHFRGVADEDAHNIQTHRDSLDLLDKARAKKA
Substance	target	assay	test system	setting	how to read	endpoint	result
PhoQ, residues 284 288 289 292 302 303 TTSMTC	PhoP, residues 12 14 15 18 19 NHFIF (Escherichia coli, UniProt P23836)	Sort-seq, item: YFP reporter	E. coli	PhoQ-PhoP variant library, together with: 10 µM Mg2+	relative to: high Mg2+ state, higher = stronger signaling	fold induction	16.2
P1 S10R	CCNE1, cyclin fold, Cln2 fusion (human)	yeast growth competition, sequencing	yeast	strong parent motif	relative to: not given, higher = stronger binding	normalised enrichment score	4.8

For quick reference, copied from above (single results of other studies):
Substance	target	assay	test system	setting	how to read	endpoint	result
PhoQ, residues 284 288 289 292 302 303 TTSMTC	PhoP, residues 12 14 15 18 19 NHFIF (Escherichia coli, UniProt P23836)	Sort-seq, item: YFP reporter	E. coli	PhoQ-PhoP variant library, together with: 10 µM Mg2+	relative to: high Mg2+ state, higher = stronger signaling	fold induction	16.2
P1 S10R	CCNE1, cyclin fold, Cln2 fusion (human)	yeast growth competition, sequencing	yeast	strong parent motif	relative to: not given, higher = stronger binding	normalised enrichment score	4.8
